Measurements pooled from the literature.
Each line is one published result; not all experiments were run side by side.
T1: RAD21/STAG2 Scc1 80-1060?, x; chain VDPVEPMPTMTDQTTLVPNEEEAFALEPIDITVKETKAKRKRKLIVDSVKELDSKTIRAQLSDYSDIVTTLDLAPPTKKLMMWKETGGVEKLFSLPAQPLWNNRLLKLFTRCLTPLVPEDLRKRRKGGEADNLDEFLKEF; chain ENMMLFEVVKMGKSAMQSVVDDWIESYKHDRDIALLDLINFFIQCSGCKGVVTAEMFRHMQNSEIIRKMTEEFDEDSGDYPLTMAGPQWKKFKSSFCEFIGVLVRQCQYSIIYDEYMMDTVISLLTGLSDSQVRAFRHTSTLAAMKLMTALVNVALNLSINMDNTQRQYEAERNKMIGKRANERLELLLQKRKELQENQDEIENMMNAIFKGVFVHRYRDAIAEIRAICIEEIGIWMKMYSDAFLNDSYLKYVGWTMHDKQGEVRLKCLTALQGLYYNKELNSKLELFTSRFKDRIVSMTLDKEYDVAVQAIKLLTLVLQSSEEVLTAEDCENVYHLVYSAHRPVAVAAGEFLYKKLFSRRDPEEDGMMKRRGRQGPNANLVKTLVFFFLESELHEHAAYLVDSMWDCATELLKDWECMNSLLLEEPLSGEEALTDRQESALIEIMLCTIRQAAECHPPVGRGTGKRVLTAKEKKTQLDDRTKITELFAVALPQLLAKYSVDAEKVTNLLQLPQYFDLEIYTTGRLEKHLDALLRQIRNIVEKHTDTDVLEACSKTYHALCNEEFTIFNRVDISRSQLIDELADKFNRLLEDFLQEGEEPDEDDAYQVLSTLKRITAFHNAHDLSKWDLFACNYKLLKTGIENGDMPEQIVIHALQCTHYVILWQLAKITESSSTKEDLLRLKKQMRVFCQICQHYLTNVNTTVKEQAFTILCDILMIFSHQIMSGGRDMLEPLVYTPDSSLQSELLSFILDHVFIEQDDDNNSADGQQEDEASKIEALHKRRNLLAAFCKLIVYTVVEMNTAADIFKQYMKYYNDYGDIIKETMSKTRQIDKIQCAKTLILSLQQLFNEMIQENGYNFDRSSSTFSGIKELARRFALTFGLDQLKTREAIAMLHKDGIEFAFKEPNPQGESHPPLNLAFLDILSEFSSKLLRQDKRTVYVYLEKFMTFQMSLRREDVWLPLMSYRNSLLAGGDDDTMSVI
B1: ROPGAP3 1-153 (Arabidopsis thaliana, UniProt Q8GYY5); chain MTNFSRSKSTGTIGFPEFKPTRPGPDKYENIHNDDDEYEEGHSTTSTDYYDASTPLSSHASRSGNGSGSGQLTVVDLLAAVLRKSLVMSCAMERGEDDVVASMDIGWPTEVKHVSHVTFDRFNGFLGLPSELEPEVPPRAPSASVSVFGVSAK
B2: BLI (Arabidopsis thaliana, UniProt Q9LIQ9); chain MASATSSRRQEDVEAGRRKLEQFRKRKAAEKAKKASQNTQPVDNSQQSVIDSDGAGASISNGPLKQSAESTSNETHTKDVYNLSFSNTAMDDGSKERSRQDDGQESVGKVDFSNSLELIGSSKDLTVNTRPEVVPYSNIDKQSSESFDRASTLRETASLFSGTSMQMDGFIHGSGLTSSRKDSLQPTTRMAGSFDEVAKNQQGSGELGGSIVQKPTLSSSYLFNSPDTSSRPSEPSDFSVNITSSSPLNSAKSEATVKRSRPSFLDSLNISRAPETQYQHPEIQADLVTSSGSQLSGSDGFGPSYISGRRDSNGPSSLTSGASDYPNPFEKFRSSLYPAANGVMPGFTDFSMPKQNDDFTALEQHIEDLTQEKFSLQRDLDASRALAESLASENSSMTDTYNQQRGLVNQLKDDMERLYQQIQAQMGELESVRVEYANAQLECNAADERSQILASEVISLEDKALRLRSNELKLERELEKAQTEMLSYKKKLQSLEKDRQDLQSTIKALQEEKKVLQTMVQKASSGGKSTDLSKNSTSRKNVSTSTEGLAISDTTPESSNQETDSTTLLESDSSNTAIIPETRQLTLEGFSLSVPADQMRVIHNINTLIAELAIEKEELVQALSSELSRSAHVQELNKELSRKLEAQTQRLELVTAQKMAIDNVSPEKQQPDTHVVQERTPIADEGDEVVERVLGWIMKMFPGGPSKRRTSKLL
B3: PIN1 167-460 (Arabidopsis thaliana, UniProt Q9C6B8); chain DTAGSIVSIHVDSDIMSLDGRQPLETEAEIKEDGKLHVTVRRSNASRSDIYSRRSQGLSATPRPSNLTNAEIYSLQSSRNPTPRGSSFNHTDFYSMMASGGGRNSNFGPGEAVFGSKGPTPRPSNYEEDGGPAKPTAAGTAAGAGRFHYQSGGSGGGGGAHYPAPNPGMFSPNTGGGGGTAAKGNAPVVGGKRQDGNGRDLHMFVWSSSASPVSDVFGGGGGNHHADYSTATNDHQKDVKISVPQGNSNDNQYVEREEFSFGNKDDDSKVLATDGGNNISNKTTQAKVMPPTSV
B4: cfap-20 (Caenorhabditis elegans, UniProt Q86D25); sequence looked up; chain MFHNTFQSGLLSVLYSIGSKPLQIWDTQIKNGHVKRITDEEIQSLVLEIMGNNISTAFISCPVDPDKTLGIKLPFFVMVVKNMNKYFSFEVQIIDDKKIKRRFRASNYQSATRVKPFICTMPMRMDEGWNQIQFNLSDFVKRAYGTNYVETLRIQIHANCRIRRVYFADRLYTEDELPAEFKLYLPIRGQLSTQSPAFAMTSE
B5: sigma factor 1-195 (Streptomyces coelicolor, UniProt Q9L0I8); chain MRDDDAPPDQGTVGGLVHRAVDGDEQATHDLLAHVHPLALRYCRTRLSRLPGDARHFVEDLAQEVCVAVLLALPRYKDTGRPFEAFVFAIAAHKVADLQRAAMRHPGSTAVPSDEMPERPDDSLGPEERALLNSDAAWAKKLLANLPENQRELLLLRIAVGLTAEETGQMLGMSPGAVRVAQHRALSRLRALAEQ
B6: MSMEG_2064 (Mycolicibacterium smegmatis, UniProt A0QU37); chain MAGSAPLRILVYSDNPRTREQVRLALGKRIHPELPEIEYVDVATAPMAISQMDAGGFDLAILDGEATPAGGMGVAKQVKDEIDDCPPILVLTGRADDAWLAKWSRAEAAVPHPIDPIRLSDAVVSLLRAPAQ
B7: WAPL 1-411 (Homo sapiens, UniProt Q7Z5K2); chain MTSRFGKTYSRKGGNGSSKFDEVFSNKRTTLSTKWGETTFMAKLGQKRPNFKPDIQEIPKKPKVEEESTGDPFGFDSDDESLPVSSKNLAQVKCSSYSESSEAAQLEEVTSVLEANSKISHVVVEDTVVSDKCFPLEDTLLGKEKSTNRIVEDDASISSCNKLITSDKVENFHEEHEKNSHHIHKNADDSTKKPNAETTVASEIKETNDTWNSQFGKRPESPSEISPIKGSVRTGLFEWDNDFEDIRSEDCILSLDSDPLLEMKDDDFKNRLENLNEAIEEDIVQSVLRPTNCRTYCRANKTKSSQGASNFDKLMDGTSQALAKANSESSKDGLNQAKKGGVSCGTSFRGTVGRTRDYTVLHPSCLSVCNVTIQDTMERSMDEFTASTPADLGEAGRLRKKADIATSKTTT
B8: atpC 1-133 (Acinetobacter baumannii, UniProt A3M145); sequence looked up; chain MATMQCDVVSVKESIYSGAVTMLIAKGAGGELGILPGHAPLVTLLQPGPIRVLLENGTEEIVYVSGGVLEVQPHVVTVLADTAIRADNLDEAAILEARKNAEQLLANQKSDLDSAAALAALAETAAQLETIRK
B9: NuoC (Mycolicibacterium smegmatis, UniProt A0QU34); chain MSTSNGSANGTNGVGLPRGDEPEIIAVRRGMFGNRDTGDTSGYGRLVRPVALPGSTPRPYGGYFDAVMDRLAEVLGEERYAMSIERVVVYRDQLTIEVSRVQLPAVASVLRDDPDLRFELCLGVSGVHYPEDTGRELHAVYPLMSITHNRRIQLEVAAPDADPHIPSLYAVYPTTDWHERETYDFFGIIFDGHPSLTRIEMPDDWEGHPQRKDYPLGGIPVEYHGAQIPPPDQRRSYS
B10: rplK uL11 (Mycobacterium smegmatis, UniProt A0QS45); chain MAPKKKVAGLIKLQIQAGQANPAPPVGPALGQHGVNIMEFCKAYNAATESQRGNVIPVEITVYEDRSFTFALKTPPAAKLLLKAAGVQKGSGEPHKTKVAKVTWDQVREIAETKKADLNANDIDAAAKIIAGTARSMGITVE
B11: PPP2R2A loopless, /165-end 1-125 (UniProt P63151); chain MAGAGGGNDIQWCFSQVKGAVDDDVAEADIISTVEFNHSGELLATGDKGGRVVIFQQEQENKIQSHSRGEYNVYSTFQSHEPEFDYLKSLEIEEKINKIRWLPQKNAAQFLLSTNDKTIKLWKISNGEASPRRIFANAHTYHINSISINSDYETYLSADDLRINLWHLEITDRSFNIVDIKPANMEELTEVITAAEFHPNSCNTFVYSSSKGTIRLCDMRASALCDRHSKLFEEPEDPSNRSFFSEIISSISDVKFSHSGRYMMTRDYLSVKIWDLNMENRPVETYQVHEYLRSKLCSLYENDCIFDKFECCWNGSDSVVMTGSYNNFFRMFDRNTKRDITLEASRENNKPRTVLKPRKVCASGKRKKDEISVDSLDFNKKILHTAWHPKENIIAVATTNNLYIFQDKVN
B12: NVJ1 229-321 (Saccharomyces cerevisiae, UniProt P38881); chain NREKDCSSSSEVESQSKCRKESTAEPDSLSRDTRTTSSLKSSTSFPISFKGSIDLKSLNQPSSLLHIQVSPTKSSNLDAQVNTEQAYSQPFRY
B13: ATG8a (Oryza sativa, UniProt Q69RC4); chain MARTSFKLEHPLERRQAESARIREKYSDRIPVIVEKADKTDVPEIDKKKYLVPADLTVGQFVYVVRKRIKLSPEKAIFVFVKNTLPPTASLMSAIYEENKDEDGFLYMTYSGENTFGSA
B14: EPS15 569-671 (Homo sapiens, UniProt P42566); chain SGVTDENEVTTAVTEKVCSELDNNRHSKEEDPFNVDSSSLTGPVADTNLDFFQSDPFVGSDPFKDDPFGKIDPFGGDPFKGSDPFASDCFFRQSTDPFATSST
B15: gpM 1-109 (bacteriophage lambda, UniProt P03737); chain MKTFRWKVKPGMDVASVPSVRKVRFGDGYSQRAPAGLNANLKTYSVTLSVPREEATVLESFLEEHGGWKSFLWTPPYEWRQIKVTCAKWSSRVSMLRVEFSAEFEQVVN
Sequence of UniProt P0AF16 (whole entry, looked up): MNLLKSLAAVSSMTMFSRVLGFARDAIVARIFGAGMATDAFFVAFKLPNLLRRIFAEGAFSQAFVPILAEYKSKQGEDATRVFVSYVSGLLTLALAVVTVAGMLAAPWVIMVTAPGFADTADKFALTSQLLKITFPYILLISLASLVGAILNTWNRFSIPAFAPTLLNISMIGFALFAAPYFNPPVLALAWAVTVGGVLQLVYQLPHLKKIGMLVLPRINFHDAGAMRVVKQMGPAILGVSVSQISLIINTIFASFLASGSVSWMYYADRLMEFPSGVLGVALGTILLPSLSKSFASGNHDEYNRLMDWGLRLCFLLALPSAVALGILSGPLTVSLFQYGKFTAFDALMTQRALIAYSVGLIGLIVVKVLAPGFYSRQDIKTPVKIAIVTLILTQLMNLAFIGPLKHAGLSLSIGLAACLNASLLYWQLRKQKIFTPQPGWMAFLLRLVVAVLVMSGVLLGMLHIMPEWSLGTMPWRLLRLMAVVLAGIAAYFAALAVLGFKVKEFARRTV
Sequence of UniProt Q7X659 (whole entry, looked up): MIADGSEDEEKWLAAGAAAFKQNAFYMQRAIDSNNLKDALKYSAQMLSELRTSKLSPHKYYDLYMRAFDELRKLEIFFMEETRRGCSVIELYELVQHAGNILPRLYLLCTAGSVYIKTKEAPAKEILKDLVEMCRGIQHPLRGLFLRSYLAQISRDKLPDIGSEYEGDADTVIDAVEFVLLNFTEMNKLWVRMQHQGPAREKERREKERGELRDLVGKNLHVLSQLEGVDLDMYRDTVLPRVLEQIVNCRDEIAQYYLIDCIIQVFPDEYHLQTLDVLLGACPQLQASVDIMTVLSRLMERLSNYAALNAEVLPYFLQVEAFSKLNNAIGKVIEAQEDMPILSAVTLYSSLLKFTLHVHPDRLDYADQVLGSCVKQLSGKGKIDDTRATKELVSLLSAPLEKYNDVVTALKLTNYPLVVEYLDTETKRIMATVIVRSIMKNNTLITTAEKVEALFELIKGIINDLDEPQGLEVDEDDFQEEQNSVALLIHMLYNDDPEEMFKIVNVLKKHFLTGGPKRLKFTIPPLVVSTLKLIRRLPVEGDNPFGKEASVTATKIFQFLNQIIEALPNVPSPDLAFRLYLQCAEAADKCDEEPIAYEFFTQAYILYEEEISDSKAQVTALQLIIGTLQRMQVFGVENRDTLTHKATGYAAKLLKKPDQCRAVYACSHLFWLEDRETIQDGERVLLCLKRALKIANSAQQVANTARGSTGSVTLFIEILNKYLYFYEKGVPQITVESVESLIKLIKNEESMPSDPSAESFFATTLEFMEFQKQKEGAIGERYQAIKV
Sequence of UniProt Q5JL08 (whole entry, looked up): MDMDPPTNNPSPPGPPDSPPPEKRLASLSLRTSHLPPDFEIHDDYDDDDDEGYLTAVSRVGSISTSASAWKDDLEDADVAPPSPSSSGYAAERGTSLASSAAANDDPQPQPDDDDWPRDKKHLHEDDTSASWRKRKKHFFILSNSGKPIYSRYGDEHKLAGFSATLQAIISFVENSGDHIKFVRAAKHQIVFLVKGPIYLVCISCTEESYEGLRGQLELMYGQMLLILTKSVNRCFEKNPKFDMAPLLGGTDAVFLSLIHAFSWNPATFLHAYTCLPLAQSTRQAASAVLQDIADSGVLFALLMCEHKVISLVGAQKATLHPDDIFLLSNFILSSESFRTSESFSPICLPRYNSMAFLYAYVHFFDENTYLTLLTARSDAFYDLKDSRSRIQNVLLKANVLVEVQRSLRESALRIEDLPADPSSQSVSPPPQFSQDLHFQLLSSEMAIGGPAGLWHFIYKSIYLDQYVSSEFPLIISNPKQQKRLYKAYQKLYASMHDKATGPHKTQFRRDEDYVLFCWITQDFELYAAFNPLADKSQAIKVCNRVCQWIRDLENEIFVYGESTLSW
Sequence of UniProt P49951 (whole entry, looked up): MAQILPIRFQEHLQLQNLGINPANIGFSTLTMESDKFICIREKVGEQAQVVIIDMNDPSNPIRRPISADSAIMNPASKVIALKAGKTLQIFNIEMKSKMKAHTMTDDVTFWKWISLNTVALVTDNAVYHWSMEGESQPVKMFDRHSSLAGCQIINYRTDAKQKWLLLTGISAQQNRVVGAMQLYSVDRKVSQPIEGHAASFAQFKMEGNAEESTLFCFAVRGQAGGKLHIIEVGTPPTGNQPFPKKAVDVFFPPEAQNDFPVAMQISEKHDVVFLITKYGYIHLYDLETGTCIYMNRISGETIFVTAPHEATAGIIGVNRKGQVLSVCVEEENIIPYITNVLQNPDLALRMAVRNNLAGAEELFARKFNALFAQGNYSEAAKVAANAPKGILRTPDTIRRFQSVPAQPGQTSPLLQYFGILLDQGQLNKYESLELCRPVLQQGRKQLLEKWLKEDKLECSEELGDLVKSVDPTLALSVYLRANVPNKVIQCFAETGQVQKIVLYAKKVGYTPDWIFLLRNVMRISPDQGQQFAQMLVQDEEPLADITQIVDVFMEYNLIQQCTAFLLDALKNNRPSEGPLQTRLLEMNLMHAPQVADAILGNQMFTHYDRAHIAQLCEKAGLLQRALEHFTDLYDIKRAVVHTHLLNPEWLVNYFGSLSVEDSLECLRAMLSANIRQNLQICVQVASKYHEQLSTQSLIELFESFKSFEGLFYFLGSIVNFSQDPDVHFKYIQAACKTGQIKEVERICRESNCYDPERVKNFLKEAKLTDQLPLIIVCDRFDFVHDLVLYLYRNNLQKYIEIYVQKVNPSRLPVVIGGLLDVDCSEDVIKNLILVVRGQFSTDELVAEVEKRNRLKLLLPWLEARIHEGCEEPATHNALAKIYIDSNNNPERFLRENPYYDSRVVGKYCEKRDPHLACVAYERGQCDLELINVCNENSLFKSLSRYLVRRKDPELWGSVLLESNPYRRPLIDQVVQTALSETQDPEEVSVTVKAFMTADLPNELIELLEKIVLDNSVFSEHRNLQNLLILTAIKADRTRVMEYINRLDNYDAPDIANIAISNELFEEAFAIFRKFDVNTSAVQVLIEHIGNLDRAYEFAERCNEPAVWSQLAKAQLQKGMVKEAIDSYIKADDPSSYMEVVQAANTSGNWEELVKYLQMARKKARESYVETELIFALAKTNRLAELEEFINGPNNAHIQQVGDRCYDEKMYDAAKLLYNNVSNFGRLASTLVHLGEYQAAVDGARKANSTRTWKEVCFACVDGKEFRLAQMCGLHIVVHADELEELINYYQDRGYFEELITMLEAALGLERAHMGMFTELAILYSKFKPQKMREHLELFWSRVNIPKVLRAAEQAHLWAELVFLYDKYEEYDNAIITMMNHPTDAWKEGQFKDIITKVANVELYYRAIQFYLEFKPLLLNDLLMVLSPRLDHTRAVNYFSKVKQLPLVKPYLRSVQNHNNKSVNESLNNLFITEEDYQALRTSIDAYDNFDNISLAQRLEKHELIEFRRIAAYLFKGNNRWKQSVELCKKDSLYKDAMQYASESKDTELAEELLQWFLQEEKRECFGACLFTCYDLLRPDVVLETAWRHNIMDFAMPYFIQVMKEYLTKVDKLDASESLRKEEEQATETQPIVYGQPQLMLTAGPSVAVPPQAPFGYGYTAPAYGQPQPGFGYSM
Sequence of UniProt Q9LU77 (whole entry, looked up): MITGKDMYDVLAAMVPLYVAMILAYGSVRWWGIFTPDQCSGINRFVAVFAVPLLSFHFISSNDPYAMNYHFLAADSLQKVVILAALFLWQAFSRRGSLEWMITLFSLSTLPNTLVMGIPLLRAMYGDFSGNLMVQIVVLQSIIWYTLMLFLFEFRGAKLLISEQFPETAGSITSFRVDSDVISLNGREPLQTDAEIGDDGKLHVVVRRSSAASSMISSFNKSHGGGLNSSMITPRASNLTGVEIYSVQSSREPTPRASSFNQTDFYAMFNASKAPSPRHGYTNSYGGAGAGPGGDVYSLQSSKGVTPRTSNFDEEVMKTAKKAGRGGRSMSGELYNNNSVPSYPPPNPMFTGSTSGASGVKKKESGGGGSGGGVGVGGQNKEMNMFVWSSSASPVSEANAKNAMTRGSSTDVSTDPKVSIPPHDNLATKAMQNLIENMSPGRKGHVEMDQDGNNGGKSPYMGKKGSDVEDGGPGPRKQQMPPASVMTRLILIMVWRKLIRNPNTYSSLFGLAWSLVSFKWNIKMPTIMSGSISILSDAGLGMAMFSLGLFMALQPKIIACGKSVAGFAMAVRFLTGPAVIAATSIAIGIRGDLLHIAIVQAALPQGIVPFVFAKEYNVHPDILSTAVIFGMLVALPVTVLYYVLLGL
Sequence of UniProt Q8NHL6 (whole entry, looked up): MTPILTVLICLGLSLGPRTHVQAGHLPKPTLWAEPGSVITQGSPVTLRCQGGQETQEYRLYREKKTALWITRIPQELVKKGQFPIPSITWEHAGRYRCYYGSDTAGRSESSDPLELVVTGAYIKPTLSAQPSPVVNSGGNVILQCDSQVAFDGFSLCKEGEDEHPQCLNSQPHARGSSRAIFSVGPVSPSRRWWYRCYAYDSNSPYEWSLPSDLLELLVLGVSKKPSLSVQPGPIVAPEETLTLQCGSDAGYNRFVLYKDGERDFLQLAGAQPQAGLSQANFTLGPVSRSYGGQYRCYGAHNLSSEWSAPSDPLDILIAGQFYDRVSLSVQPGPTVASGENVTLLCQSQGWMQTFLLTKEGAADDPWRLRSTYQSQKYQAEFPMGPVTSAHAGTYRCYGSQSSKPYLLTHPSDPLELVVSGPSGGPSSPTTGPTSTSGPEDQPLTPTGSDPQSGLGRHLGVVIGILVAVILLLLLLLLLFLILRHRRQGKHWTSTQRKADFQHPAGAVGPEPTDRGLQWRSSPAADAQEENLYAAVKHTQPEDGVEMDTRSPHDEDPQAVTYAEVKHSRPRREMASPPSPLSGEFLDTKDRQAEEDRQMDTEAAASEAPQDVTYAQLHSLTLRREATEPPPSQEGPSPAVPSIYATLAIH
Sequence of UniProt P56211 (whole entry, looked up): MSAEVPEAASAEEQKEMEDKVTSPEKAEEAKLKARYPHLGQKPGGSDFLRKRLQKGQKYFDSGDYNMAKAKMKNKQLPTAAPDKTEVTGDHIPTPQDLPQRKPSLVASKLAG

`MSI2 (Arabidopsis thaliana, UniProt O22468)` — result for binding: “binds” (Histone H3.1 (Homo sapiens, UniProt P68431); pull-down).
For `B1 (ROPGAP3 1-153)`, binding read “binds” (PIN2 167-485 (Arabidopsis thaliana, UniProt Q9LU77); pull-down; in vitro).
`YQGSQCGSLSMLLGKSKPFCTFVEG (PF3D7_0900200 peptide 243-267 (Plasmodium falciparum, UniProt Q8I3E4); sequence looked up)`: binding “binds” (LILRB1 24-461 (Homo sapiens, UniProt Q8NHL6); SPR; peptide).
`MSI3 (Arabidopsis thaliana, UniProt O22469)` — result for binding: “binds” (Histone H4 (Homo sapiens, UniProt P62805); pull-down).
For `B2 (BLI)`, binding read “binds” (VPS35A (Arabidopsis thaliana, UniProt Q7X659); pull-down).
For `MKYIINLAFCVLLLVAGDSIAYRVSQYLAPLVDTFTK (lys)`, binding read “binds” (murJ 2-511 (Escherichia coli, UniProt P0AF16); cryo-EM).
`afsR (Streptomyces coelicolor, UniProt P25941)` — result for binding: “binds” (rpoB 1-1161 (Streptomyces coelicolor, UniProt Q9L0L0); cryo-EM).
For `MPQLNGGGGDDLGANDELISFKDEGEQEEKSSENSSAERDLADVKSSLVNESE (TCF7L2 1-53 (Homo sapiens, UniProt Q9NQB0))`, binding read “binds” (CTNNB1 (Homo sapiens, UniProt P35222); BLI).
Under binding, `NNDNPLFKSA (ITGB2 residues 748-757 (Homo sapiens))` is recorded as “binds” (TLN1 head domain 1-430 D397R/del139-168, fused to integrin β2 or β3 (UniProt P26039); crystal structure; peptide).
`B3 (PIN1 167-460)`: binding “binds” (ROPGAP3 (Arabidopsis thaliana, UniProt Q8GYY5); pull-down; 4 °C).
Under binding, `B4 (cfap-20)` is recorded as “binds” (jbts-26 (Caenorhabditis elegans, UniProt O44770); pull-down).
`B5 (sigma factor 1-195)` — result for binding: “binds” (rpoC β' subunit 1-1299 (Streptomyces coelicolor, UniProt Q8CJT1); cryo-EM).
`B6 (MSMEG_2064)` — result for binding: “binds” (NuoC (Mycolicibacterium smegmatis, UniProt A0QU34); cryo-EM).
`B7 (WAPL 1-411)`: binding “binds” (T1, RAD21/STAG2 Scc1 80-1060?, x; pull-down).
`B8 (atpC 1-133)`: binding “binds” (atpG 1-289 (Acinetobacter baumannii, UniProt A3M143); cryo-EM).
Under binding, `B9 (NuoC)` is recorded as “binds” (nuoG (Mycolicibacterium smegmatis, UniProt A0QU30); cryo-EM).
`B10 (rplK uL11)` — result for binding: “binds” (hflX (Mycobacterium smegmatis, UniProt A0QVY1); cryo-EM).
`B11`: binding “binds” (ARPP19 (Homo sapiens, UniProt P56211); NMR titration).
For `B12 (NVJ1 229-321)`, binding read “binds” (VAC8 1-578 L31R (Saccharomyces cerevisiae, UniProt P39968); pull-down).
`B13 (ATG8a)` — result for binding: “binds” (MON1 GST fusion (Oryza sativa, UniProt Q5JL08); pull-down).
`B14 (EPS15 569-671)` — result for binding: “binds” (CLTC 1-363 (Bos taurus, UniProt P49951); NMR titration).
`LQLQKGSDTEAQCE (INTS3 584-597; pS590/pT592)`: binding “binds” (NBN 1-334 S118A (Homo sapiens, UniProt O60934); ITC; peptide).
For `B15 (gpM 1-109)`, binding read “binds” (gpV tail tube protein (bacteriophage lambda, UniProt P03733); cryo-EM).
`HBV core protein C-terminal NLS peptide (hepatitis B virus) (sequence not shown)`: binding “binds” (Kpna2 fragment (Mus musculus); crystal structure).

A few entries again:
`LQLQKGSDTEAQCE (INTS3 584-597; pS590/pT592)`: binding “binds” (NBN 1-334 S118A (Homo sapiens, UniProt O60934); ITC; peptide).
For `B15 (gpM 1-109)`, binding read “binds” (gpV tail tube protein (bacteriophage lambda, UniProt P03733); cryo-EM).
